# Measured values of several laboratories.
# A part holds a random share of what one study measured.

# Study 1 — technique: DNA-protein interaction ELISA; molecule type: double-stranded DNA, one strand shown; sample: in vitro, bacterial lysate; tested at: not given; notes: whole dsDNA probe, crude lysate protein; relative to: highest signal in screen; reading: higher = stronger binding
# Target: Probable WRKY transcription factor 33, C-terminal DNA-binding domain (WRKY33, Arabidopsis thaliana, UniProt Q8S8P5, residues 346-449)
# Residues (chain): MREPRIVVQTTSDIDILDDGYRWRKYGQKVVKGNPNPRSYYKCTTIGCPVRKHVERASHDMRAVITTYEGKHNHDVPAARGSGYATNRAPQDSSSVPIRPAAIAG
Sequence,relative absorbance
AAAAAAGTCCATAAACTAAATTGGATAAAA,33.7 % of maximum
AAAAAAGCTAGTCGATTCGGCTTAGAAAAA,40.9 % of maximum
AAAAAACGTTGAACCTGGGCCTCAACAAAA,99.6 % of maximum
AAAAAAGGGAGTCATGCTTCTTGTTTAAAA,60.1 % of maximum
AAAAAAACATCCACACCCGCGGCGCGAAAA,44.2 % of maximum
AAAAAACACAGCATTAGGCTATCGGTAAAA,40.2 % of maximum

# Study 2 — technique: universal PBM; molecule type: double-stranded DNA, one strand shown; sample: in vitro; tested at: 600 nM; reading: higher = stronger binding
# Target: Sal-like protein 4, full length isoform A (SALL4, Homo sapiens, UniProt Q9UJQ4, residues 1-1053)
# Chain of UniProt Q9UJQ4 (whole entry, looked up): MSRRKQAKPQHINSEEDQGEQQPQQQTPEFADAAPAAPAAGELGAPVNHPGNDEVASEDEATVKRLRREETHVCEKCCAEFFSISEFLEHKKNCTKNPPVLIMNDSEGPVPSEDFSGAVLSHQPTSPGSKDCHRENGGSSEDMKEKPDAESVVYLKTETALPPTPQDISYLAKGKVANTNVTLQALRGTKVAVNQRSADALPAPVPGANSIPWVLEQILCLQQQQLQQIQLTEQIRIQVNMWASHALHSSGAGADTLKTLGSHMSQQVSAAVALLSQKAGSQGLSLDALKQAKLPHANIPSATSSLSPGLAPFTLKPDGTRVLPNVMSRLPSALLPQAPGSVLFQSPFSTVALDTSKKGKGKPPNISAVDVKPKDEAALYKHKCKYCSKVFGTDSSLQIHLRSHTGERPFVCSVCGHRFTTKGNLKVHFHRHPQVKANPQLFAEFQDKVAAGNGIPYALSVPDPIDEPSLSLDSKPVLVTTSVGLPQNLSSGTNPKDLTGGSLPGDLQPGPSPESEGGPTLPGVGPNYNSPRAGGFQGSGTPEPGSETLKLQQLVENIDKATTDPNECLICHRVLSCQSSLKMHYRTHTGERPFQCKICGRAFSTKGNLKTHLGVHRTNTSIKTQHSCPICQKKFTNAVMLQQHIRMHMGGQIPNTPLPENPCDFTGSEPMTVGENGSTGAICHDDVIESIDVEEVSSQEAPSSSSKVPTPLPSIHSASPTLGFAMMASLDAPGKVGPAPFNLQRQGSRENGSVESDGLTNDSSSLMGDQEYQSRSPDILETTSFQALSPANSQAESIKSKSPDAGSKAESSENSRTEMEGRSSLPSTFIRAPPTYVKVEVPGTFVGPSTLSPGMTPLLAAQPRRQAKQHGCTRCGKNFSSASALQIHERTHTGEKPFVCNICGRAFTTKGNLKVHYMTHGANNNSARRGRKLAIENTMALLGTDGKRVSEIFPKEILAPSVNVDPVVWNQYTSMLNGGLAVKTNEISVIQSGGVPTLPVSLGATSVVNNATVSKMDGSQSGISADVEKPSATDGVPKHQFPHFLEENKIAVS
# Notes: 8-mer, flanks averaged, mean of replicates
Sequence,E-score
TCGCGCCA,-0.238
CATTGATC,0.05
ACATTGCA,0.09
AACAAGTC,0.0609
ATTACAAC,0.244

# Study 3 — technique: RNA Bind-n-Seq; molecule type: RNA; sample: in vitro; tested at: 200 nM; notes: whole 134-nt RNA, ends assumed; together with: 150 mM KCl; relative to: input library; reading: higher = stronger binding
# Target: Fragile X messenger ribonucleoprotein 1, C-terminal low-complexity region (Fmr1, Mus musculus, UniProt P35922)
Sequence,log2 enrichment
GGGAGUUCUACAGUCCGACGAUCCACAGACAACACGCACCCACACAGACACAGAGGGAAGGGGUUGGGAUGGGGACAGGGUGCACAGCAGGGCGGGGUAGGACCCCAGCCCCAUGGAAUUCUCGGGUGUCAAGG,1.22
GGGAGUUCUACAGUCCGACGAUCCCUGUGCUACACAUCGUAUGUACCGAAUCGGUUUUUUUGGUUUUUUUGGGUUUUUUUGGGAAAGUAUUAUGUUACGCCGUUCGGAUCUGCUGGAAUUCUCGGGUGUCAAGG,-0.681
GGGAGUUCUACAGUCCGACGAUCUCCUGUGCUACACAUCGUAUGUACCGAAUCGGGCCCCCCGGCCCCCCGGGCCCCCCGGGGAAAGUAUUAUGUUACGCCGUUCGGAUCUGCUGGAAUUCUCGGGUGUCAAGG,-0.0764
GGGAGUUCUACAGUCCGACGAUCCAAGUCCUGUGCUACACAUCGUAUGUACCGAAUCGGGUUUGGGUUUUUGGGUGGGAAAGUAUUAUGUUACGCCGUUCGGAUCUGCACUUCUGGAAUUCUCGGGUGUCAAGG,1.17
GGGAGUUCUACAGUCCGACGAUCCACAGACAACACGCACCCACACAGACACAGAGGGAAGGGGUUGGGAUGGGGACAGGGUGCACAGCAGGGCGGGGUAGUACCCCAGCCCCUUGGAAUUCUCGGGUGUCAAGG,1.37

# Single results of other studies
Molecule,target,test,test system,setting,scale,measurement,result
"PhoQ, residues 284 288 289 292 302 303 TTCLQL","PhoP, residues 12 14 15 18 19 NHFRA (Escherichia coli, UniProt P23836)","Sort-seq, measured: YFP reporter",E. coli,"PhoQ-PhoP variant library, together with: 10 µM Mg2+","relative to: high Mg2+ state, higher = stronger signaling",fold induction,0.882

# Some of these lines once more (single results of other studies):
Molecule,target,test,test system,setting,scale,measurement,result
"PhoQ, residues 284 288 289 292 302 303 TTCLQL","PhoP, residues 12 14 15 18 19 NHFRA (Escherichia coli, UniProt P23836)","Sort-seq, measured: YFP reporter",E. coli,"PhoQ-PhoP variant library, together with: 10 µM Mg2+","relative to: high Mg2+ state, higher = stronger signaling",fold induction,0.882
